Results from different studies.
Parts stem from different laboratories: compare values within a part only. Values joined by “and” are separate records of one study, mostly repeats; a detail may differ.
UniProt P21127, sequence (whole entry, looked up): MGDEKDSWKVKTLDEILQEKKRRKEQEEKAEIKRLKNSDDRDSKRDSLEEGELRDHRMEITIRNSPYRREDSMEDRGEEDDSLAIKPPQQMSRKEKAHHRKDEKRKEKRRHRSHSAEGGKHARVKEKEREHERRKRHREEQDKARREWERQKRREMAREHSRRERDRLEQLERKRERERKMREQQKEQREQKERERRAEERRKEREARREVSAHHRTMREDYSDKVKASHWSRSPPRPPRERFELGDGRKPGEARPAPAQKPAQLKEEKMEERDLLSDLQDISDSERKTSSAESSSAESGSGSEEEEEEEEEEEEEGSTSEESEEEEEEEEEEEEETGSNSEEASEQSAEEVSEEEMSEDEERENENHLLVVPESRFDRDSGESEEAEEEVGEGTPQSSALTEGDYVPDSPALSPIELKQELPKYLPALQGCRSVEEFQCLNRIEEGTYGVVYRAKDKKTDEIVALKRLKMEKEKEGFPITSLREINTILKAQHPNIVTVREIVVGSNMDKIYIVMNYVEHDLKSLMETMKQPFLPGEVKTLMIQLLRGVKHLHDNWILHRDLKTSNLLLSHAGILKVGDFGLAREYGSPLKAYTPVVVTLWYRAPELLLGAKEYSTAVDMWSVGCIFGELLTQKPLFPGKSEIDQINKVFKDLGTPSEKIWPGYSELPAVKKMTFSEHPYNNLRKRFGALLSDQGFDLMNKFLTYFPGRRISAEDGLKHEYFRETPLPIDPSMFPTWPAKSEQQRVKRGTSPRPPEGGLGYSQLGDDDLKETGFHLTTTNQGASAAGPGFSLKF
UniProt P25098, sequence (whole entry, looked up): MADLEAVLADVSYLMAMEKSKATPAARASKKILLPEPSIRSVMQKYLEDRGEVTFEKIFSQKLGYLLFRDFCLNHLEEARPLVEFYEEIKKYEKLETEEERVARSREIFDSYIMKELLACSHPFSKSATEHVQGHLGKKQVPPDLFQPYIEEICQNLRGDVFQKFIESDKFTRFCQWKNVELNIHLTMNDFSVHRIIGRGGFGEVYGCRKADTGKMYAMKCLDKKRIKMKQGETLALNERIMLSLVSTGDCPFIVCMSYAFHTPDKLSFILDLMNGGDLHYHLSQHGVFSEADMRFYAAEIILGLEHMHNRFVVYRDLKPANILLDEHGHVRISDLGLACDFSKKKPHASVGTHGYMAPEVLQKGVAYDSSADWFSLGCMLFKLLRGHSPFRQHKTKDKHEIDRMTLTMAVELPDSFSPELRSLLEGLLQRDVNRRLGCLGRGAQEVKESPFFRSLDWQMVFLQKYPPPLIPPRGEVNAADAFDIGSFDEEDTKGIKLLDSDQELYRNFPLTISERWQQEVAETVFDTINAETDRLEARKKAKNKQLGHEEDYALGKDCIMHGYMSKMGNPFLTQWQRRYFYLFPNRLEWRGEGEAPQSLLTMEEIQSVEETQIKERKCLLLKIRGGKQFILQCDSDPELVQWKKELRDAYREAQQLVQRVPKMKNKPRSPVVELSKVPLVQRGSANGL
UniProt Q06418, sequence (whole entry, looked up): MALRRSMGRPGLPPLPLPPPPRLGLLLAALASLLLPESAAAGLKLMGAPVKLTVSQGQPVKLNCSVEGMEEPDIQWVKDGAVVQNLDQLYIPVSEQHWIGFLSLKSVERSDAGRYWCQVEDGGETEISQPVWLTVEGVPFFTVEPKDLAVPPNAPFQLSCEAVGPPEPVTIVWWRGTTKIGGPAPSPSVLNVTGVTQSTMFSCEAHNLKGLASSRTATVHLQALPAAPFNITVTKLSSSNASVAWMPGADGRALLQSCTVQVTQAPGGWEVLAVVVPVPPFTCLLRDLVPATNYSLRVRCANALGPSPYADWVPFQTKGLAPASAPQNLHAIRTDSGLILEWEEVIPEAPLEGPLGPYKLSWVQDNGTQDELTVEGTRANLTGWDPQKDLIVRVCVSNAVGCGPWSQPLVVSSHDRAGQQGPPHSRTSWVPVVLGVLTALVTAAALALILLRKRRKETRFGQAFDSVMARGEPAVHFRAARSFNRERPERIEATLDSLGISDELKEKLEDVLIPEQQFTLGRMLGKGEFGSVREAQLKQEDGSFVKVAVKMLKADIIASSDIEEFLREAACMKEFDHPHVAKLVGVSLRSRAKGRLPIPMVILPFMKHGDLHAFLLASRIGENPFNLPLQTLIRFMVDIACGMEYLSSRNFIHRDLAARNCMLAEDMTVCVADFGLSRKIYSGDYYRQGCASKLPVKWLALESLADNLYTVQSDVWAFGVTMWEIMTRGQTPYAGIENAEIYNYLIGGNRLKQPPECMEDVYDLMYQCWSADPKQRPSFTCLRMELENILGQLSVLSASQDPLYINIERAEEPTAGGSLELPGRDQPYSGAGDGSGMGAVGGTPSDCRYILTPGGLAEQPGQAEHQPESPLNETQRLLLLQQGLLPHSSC
UniProt Q8NFD2, sequence (whole entry, looked up): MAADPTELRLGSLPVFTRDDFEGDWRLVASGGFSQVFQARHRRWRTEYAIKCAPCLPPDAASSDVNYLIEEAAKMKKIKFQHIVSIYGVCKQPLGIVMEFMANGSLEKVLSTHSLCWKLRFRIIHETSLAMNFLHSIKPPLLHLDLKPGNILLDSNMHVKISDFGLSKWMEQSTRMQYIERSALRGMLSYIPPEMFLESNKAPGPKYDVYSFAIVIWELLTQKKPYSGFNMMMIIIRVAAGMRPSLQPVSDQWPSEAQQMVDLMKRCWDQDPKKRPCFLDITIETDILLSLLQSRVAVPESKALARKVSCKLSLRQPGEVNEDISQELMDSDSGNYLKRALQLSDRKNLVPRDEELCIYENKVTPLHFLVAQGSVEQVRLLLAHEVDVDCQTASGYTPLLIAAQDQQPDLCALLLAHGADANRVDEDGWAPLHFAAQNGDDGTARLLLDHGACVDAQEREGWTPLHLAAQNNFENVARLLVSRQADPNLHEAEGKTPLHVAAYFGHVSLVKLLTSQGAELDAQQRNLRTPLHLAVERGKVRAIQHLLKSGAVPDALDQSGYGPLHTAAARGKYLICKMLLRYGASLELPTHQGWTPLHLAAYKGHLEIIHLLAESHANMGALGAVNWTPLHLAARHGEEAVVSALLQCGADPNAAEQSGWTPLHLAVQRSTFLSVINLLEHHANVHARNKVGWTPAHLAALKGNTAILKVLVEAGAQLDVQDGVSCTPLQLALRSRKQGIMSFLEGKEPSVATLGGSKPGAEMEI
UniProt Q00535, sequence (whole entry, looked up): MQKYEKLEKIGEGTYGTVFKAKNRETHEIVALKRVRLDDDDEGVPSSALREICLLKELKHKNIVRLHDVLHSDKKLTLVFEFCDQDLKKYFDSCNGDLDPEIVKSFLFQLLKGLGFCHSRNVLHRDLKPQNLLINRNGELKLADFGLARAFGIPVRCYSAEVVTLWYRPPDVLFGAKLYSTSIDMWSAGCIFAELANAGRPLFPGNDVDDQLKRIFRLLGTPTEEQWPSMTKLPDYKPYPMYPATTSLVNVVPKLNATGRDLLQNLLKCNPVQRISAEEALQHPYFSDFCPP
UniProt Q13705, sequence (whole entry, looked up): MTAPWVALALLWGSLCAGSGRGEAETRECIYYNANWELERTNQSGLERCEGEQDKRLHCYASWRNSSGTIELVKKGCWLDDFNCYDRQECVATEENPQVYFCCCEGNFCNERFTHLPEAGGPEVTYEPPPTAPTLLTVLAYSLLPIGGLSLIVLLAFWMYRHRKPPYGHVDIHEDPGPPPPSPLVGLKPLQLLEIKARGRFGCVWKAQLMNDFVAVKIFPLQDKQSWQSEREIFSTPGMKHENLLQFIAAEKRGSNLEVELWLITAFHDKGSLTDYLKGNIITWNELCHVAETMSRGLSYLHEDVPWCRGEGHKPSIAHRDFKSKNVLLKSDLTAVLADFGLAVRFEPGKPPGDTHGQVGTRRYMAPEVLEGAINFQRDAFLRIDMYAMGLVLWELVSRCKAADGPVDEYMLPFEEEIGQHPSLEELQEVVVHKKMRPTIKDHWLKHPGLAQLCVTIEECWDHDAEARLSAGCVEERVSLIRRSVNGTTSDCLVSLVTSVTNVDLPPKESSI

Series 1 — cell line: mouse MPNST tumor cells; method: high-content nuclear imaging; measured: cell number; concentration: 10 µM; time: 12 h; setting: mean of 2 replicates; baseline: plate mean; direction: higher = more cells; quantity: nuclei count
CCCc1cc(C(N)=S)ccn1: -0.313 z-score
CN(C)c1ccc(O)c2c1C[C@H]1C[C@H]3[C@H](N(C)C)C(=O)C(C(N)=O)=C(O)[C@@]3(O)C(=O)C1=C2O: -0.867 z-score
Nc1nc(SCCc2ccc(S(=O)(=O)O)cc2)nc2c1ncn2[C@@H]1O[C@H](CO)[C@@H](O)[C@@H]1O: 2.29 z-score
O=c1[nH]cc(F)c(=O)[nH]1: -2.97 z-score and -1.48 z-score
CC(=O)N(C)c1cccc(-c2ccc3nnc(C)n3n2)c1: 1.75 z-score
Cc1ccc(-c2cn3c4c(sc3n2)CCCC4)cc1: -0.528 z-score
CC(C)(C)C(=O)C(=Cc1cccc([N+](=O)[O-])c1)n1cncn1: -6.3 z-score
c1ccc([C@H]2CN3CCSC3=N2)cc1: 0.24 z-score and 0.89 z-score
CN1CCc2ccccc2Cc2[nH]c3ccccc3c2CC1: 0.53 z-score
CN(C)C(=O)COC(=O)Cc1ccc(OC(=O)c2ccc(NC(=N)N)cc2)cc1: 1.33 z-score
CC(C)[C@H](N)C(=O)OCCOCn1cnc2c(=O)nc(N)[nH]c21: 0.578 z-score
O=C(CCCCCCC(=O)NO)NO: 1.13 z-score
CC(N)C12CC3CC(CC(C3)C1)C2 (stereo not drawn): 2.31 z-score
NC(=O)c1ccc(F)c2c1C[C@@H](N(C1CCC1)C1CCC1)CO2: 0.385 z-score
COc1cc(C(=S)N2CCOCC2)cc(OC)c1OC: 0.953 z-score
Clc1cccc(CN=C2Nc3ccccc3NC23CCNCC3)c1: -5.43 z-score
CC(C)N(CCCNC(=O)Nc1ccc(C(C)(C)C)cc1)C[C@H]1O[C@@H](n2ccc3c(N)ncnc32)[C@H](O)[C@@H]1O: 2.41 z-score
COc1cc2c(cc1OC)CN(C(=O)[C@@H](NCc1ccncc1)C(C)(C)C)CC2: -1 z-score

Series 2 — concentration: 1 µM; quantity: remaining binding
Compound: CN(C)c1ncnc(-c2ccc3nc(Nc4cc(CN5CCN(C(=O)CC(F)(F)F)CC5)ccn4)[nH]c3c2)c1Cl
Receptor-type tyrosine-protein kinase FLT3 (FLT3, Homo sapiens, UniProt P36888, R834Q); cell-free assay, competition with immobilised ligand: 77%
Tyrosine-protein kinase ABL1, phosphorylated (ABL1, Homo sapiens, UniProt P00519, F317I); binding: 71%
Beta-adrenergic receptor kinase 1 (GRK2, Homo sapiens, UniProt P25098); cell-free assay, competition with immobilised ligand: 57%
Leucine-rich repeat serine/threonine-protein kinase 2 (LRRK2, Homo sapiens, UniProt Q5S007, G2019S); cell-free assay, competition with immobilised ligand: 69%
Tyrosine-protein kinase ABL1, non-phosphorylated (ABL1, Homo sapiens, UniProt P00519, T315I); cell-free assay, competition with immobilised ligand: 46%
Serine/threonine-protein kinase 17B (STK17B, Homo sapiens, UniProt O94768); cell-free assay, competition with immobilised ligand: 52%
Casein kinase I isoform gamma-2 (CSNK1G2, Homo sapiens, UniProt P78368); cell-free assay, competition with immobilised ligand: 100%
SRSF protein kinase 3 (SRPK3, Homo sapiens, UniProt Q9UPE1); cell-free assay, competition with immobilised ligand: 100%
Ankyrin repeat and protein kinase domain-containing protein 1 (ANKK1, Homo sapiens, UniProt Q8NFD2); cell-free assay, competition with immobilised ligand: 57%
Mitotic checkpoint serine/threonine-protein kinase BUB1 (BUB1, Homo sapiens, UniProt O43683); cell-free assay, competition with immobilised ligand: 94%
Mitogen-activated protein kinase 3 (MAPK3, Homo sapiens, UniProt P27361); cell-free assay, competition with immobilised ligand: 100%
Activin receptor type-2B (ACVR2B, Homo sapiens, UniProt Q13705); cell-free assay, competition with immobilised ligand: 100%
Phosphatidylinositol 4-kinase beta (PI4KB, Homo sapiens, UniProt Q9UBF8); cell-free assay, competition with immobilised ligand: 100%
Receptor-interacting serine/threonine-protein kinase 2 (RIPK2, Homo sapiens, UniProt O43353); cell-free assay, competition with immobilised ligand: 37%
Receptor-type tyrosine-protein kinase FLT3 (FLT3, Homo sapiens, UniProt P36888, N841I); cell-free assay, competition with immobilised ligand: 53%
Mitogen-activated protein kinase kinase kinase kinase 3 (MAP4K3, Homo sapiens, UniProt Q8IVH8); cell-free assay, competition with immobilised ligand: 74%
Ephrin type-B receptor 3 (EPHB3, Homo sapiens, UniProt P54753); cell-free assay, competition with immobilised ligand: 100%
Serine/threonine-protein kinase B-raf (BRAF, Homo sapiens, UniProt P15056); cell-free assay, competition with immobilised ligand: 83%
Death-associated protein kinase 2 (DAPK2, Homo sapiens, UniProt Q9UIK4); cell-free assay, competition with immobilised ligand: 100%
Cyclin-dependent kinase 11B (CDK11B, Homo sapiens, UniProt P21127); cell-free assay, competition with immobilised ligand: 100%
Mitogen-activated protein kinase 4 (MAPK4, Homo sapiens, UniProt P31152); cell-free assay, competition with immobilised ligand: 100%
Tyrosine-protein kinase receptor TYRO3 (TYRO3, Homo sapiens, UniProt Q06418); cell-free assay, competition with immobilised ligand: 100%
Serine/threonine-protein kinase Chk1 (CHEK1, Homo sapiens, UniProt O14757); cell-free assay, competition with immobilised ligand: 97%
Cyclin-dependent kinase 5 (CDK5, Homo sapiens, UniProt Q00535); cell-free assay, competition with immobilised ligand: 100%

Series 3 — effect on: enzyme activity; action: inhibitor; concentration: 0.5 µM; baseline: control; quantity: remaining activity
Target: Calcium/calmodulin-dependent protein kinase kinase 1 (CAMKK1, Homo sapiens, UniProt Q8N5S9)
UniProt Q8N5S9, sequence (whole entry, looked up): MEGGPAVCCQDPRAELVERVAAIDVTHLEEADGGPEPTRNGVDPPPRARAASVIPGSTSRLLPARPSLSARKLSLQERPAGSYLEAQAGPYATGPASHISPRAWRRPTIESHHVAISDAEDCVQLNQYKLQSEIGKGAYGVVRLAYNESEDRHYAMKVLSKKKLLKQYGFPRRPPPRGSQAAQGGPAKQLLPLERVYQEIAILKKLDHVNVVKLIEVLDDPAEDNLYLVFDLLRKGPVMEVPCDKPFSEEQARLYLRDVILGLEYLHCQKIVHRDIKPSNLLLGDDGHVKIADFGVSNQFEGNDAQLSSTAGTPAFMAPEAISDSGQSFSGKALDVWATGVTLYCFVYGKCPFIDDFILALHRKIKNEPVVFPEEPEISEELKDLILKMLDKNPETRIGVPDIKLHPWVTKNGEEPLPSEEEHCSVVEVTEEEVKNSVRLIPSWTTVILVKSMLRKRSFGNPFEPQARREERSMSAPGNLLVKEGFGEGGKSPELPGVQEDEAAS
Nc1nc(Nc2ccc(S(N)(=O)=O)cc2)nn1C(=S)Nc1c(F)cccc1F: 36%
NC(=O)c1ccc(-c2nc(-c3ccc4c(c3)OCCO4)c(-c3ccccn3)[nH]2)cc1: 114%
O=C(O)/C=C/c1cc(Br)c(Br)c(Br)c1Br: 105%
O=C1NC(=O)/C(=C/c2ccc3c(c2)OC(F)(F)O3)S1: 86%
N#CC(c1ccnc(NCCc2cccnc2)n1)c1nc2ccccc2s1 (stereo not drawn): 101%
O=C1c2ccccc2-c2nc3nnnn3nc21: 74.9%
CC(C)(C)c1nc2c3cc[nH]c(=O)c3c3cc(F)ccc3c2[nH]1: 81.4%
C[C@@H](N)[C@H]1CC[C@H](C(=O)Nc2ccncc2)CC1: 85.3%
FC(F)(F)c1ccc(/C=C/c2nc(COc3ccc(CCCCn4ccnn4)cc3)co2)cc1: 96.7%
COc1cc2c(Nc3ccc(Br)cc3F)ncnc2cc1OCC1CCN(C)CC1: 90.4%
Clc1ccc(Nc2nnc(Cc3ccncc3)c3ccccc23)cc1: 97.2%
NC(=O)c1cccc(-c2cc(Nc3ccc(OC(F)(F)F)cc3)ncn2)c1: 103%
CC(C)N(CCC(=O)c1ccc2ccccc2c1)Cc1ccccc1: 104%
O=Nc1c(-c2c(O)[nH]c3ccccc23)[nH]c2ccccc12: 53.6%
N#C/C(=C(/N)SC1C=CC=CC1)c1cccc(C(O)c2ccncc2)c1 (stereo not drawn): 103%
COc1cc2c(N3CCN(C(=O)Nc4ccc(OC(C)C)cc4)CC3)ncnc2cc1OCCCN1CCCCC1: 90.3%
c1cc(-c2cnn3cc(-c4ccc(OCCN5CCCCC5)cc4)cnc23)ccn1: 59.2%
CNc1cc2c(Nc3cccc(Br)c3)ncnc2cn1: 92.6%
CCN(CC)CCCCN1c2ccccc2Oc2ccc(Cl)cc21: 116%
CC(C)n1cnc2c(Nc3cccc(Cl)c3)nc(NCCO)nc21: 88.2%
O=C(c1ccccc1)c1ccc(N2CCOCC2)cc1O: 107%

Series 4 — effect on: enzyme activity; action: inhibitor; concentration: 10 µM; quantity: inhibition
Target: Calcium/calmodulin-dependent protein kinase type II subunit alpha (CAMK2A, Homo sapiens, UniProt Q9UQM7)
UniProt Q9UQM7, sequence (whole entry, looked up): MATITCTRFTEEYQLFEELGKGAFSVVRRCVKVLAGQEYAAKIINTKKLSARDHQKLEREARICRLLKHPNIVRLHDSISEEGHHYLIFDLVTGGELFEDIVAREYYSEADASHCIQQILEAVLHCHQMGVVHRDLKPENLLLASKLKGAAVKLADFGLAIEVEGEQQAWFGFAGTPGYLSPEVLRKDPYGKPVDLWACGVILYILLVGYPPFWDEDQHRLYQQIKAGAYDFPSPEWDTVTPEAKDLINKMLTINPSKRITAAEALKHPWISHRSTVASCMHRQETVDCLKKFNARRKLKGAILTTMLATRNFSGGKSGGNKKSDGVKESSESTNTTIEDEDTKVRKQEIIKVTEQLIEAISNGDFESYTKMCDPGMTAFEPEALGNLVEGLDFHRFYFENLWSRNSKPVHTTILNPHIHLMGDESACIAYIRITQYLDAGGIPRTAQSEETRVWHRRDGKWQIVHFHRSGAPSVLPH
C[C@@H]1C[C@H]2O[C@@]3(O[C@@H]2C(C)(C)O)[C@H](O)[C@@]2(C)[C@@H]4CC[C@H]5C(C)(C)[C@@H](O[C@@H]6OC[C@@H](O)[C@H](O)[C@H]6O)CC[C@@]56C[C@@]46CC[C@]2(C)[C@@H]13: 21%
CC#CCC(C)[C@@H](O)/C=C/[C@H]1[C@@H]2c3cccc(CCCC(=O)O)c3O[C@@H]2C[C@@H]1O (stereo partly drawn): -4%
COc1c(O[C@@H]2O[C@H](CO)[C@@H](O)[C@H](O)[C@H]2O)cc2oc(-c3ccc(O)cc3)cc(=O)c2c1O: -8%
COC[C@@H]1Cc2cc(OC)c3c(c2[C@H](c2ccc(OC)c(OC)c2)[C@H]1COC)OCO3: -23%
CCCCOC(=O)c1ccccc1Nc1cccc(C(F)(F)F)c1: -3%
C1CSCSC1: -38%
COc1cc([C@@H]2c3cc4c(cc3[C@H](O)[C@H]3COC(=O)[C@@H]23)OCO4)cc(OC)c1OC: -1%
Cc1ccc(O)c(O)c1: 24%
COc1ccc(C(=O)O)cc1: 29%
CC(C)=CCC[C@](C)(O)[C@H]1CC[C@]2(C)[C@@H]1[C@H](O)C[C@@H]1[C@@]3(C)CC[C@H](O[C@@H]4O[C@H](CO)[C@@H](O)[C@H](O)[C@H]4O[C@@H]4O[C@H](CO)[C@@H](O)[C@H](O)[C@H]4O)C(C)(C)[C@@H]3CC[C@]12C: -14%
CC(=O)OCc1cocc2c(C=O)ccc1-2: -12%
Oc1ccc(O)c(O)c1: -26%
CC(=O)Oc1cc(C(C)C)c(OCCN(C)C)cc1C: -4%
CC(C)C[C@H](N)C(=O)N[C@@H](C)C(=O)O: 11%
O=c1c2ccccc2nc2n1CC[C@@H]2O: 39%
CC1=C[C@]23C(=O)[C@H](C=C4COC(C)(C)OC4C24OC(C)(C)OC14)[C@@H]1[C@H](CC3C)C1(C)C (stereo partly drawn): 14%
CC1(C)[C@@H]2CC[C@@]1(C)C(=O)C2: 2%
COc1cc2ccc(=O)oc2c(O[C@@H]2O[C@H](CO)[C@@H](O)[C@H](O)[C@H]2O)c1O: -5%

Repeated from above (series 3):
CNc1cc2c(Nc3cccc(Br)c3)ncnc2cn1: 92.6%
O=Nc1c(-c2c(O)[nH]c3ccccc23)[nH]c2ccccc12: 53.6%
CC(C)n1cnc2c(Nc3cccc(Cl)c3)nc(NCCO)nc21: 88.2%
CCN(CC)CCCCN1c2ccccc2Oc2ccc(Cl)cc21: 116%
CC(C)(C)c1nc2c3cc[nH]c(=O)c3c3cc(F)ccc3c2[nH]1: 81.4%
CC(C)N(CCC(=O)c1ccc2ccccc2c1)Cc1ccccc1: 104%
NC(=O)c1ccc(-c2nc(-c3ccc4c(c3)OCCO4)c(-c3ccccn3)[nH]2)cc1: 114%
N#C/C(=C(/N)SC1C=CC=CC1)c1cccc(C(O)c2ccncc2)c1 (stereo not drawn): 103%
O=C1NC(=O)/C(=C/c2ccc3c(c2)OC(F)(F)O3)S1: 86%
O=C(c1ccccc1)c1ccc(N2CCOCC2)cc1O: 107%
COc1cc2c(N3CCN(C(=O)Nc4ccc(OC(C)C)cc4)CC3)ncnc2cc1OCCCN1CCCCC1: 90.3%
